Results collected from several papers.
Compare with care: the assays were run in different laboratories. Several values in a cell are separate wells, animals, samples, runs or records. ± gives the spread as reported.
ALB: Albumin (ALB, Bos taurus, UniProt P02769)
UniProt P02769, sequence (whole entry, looked up): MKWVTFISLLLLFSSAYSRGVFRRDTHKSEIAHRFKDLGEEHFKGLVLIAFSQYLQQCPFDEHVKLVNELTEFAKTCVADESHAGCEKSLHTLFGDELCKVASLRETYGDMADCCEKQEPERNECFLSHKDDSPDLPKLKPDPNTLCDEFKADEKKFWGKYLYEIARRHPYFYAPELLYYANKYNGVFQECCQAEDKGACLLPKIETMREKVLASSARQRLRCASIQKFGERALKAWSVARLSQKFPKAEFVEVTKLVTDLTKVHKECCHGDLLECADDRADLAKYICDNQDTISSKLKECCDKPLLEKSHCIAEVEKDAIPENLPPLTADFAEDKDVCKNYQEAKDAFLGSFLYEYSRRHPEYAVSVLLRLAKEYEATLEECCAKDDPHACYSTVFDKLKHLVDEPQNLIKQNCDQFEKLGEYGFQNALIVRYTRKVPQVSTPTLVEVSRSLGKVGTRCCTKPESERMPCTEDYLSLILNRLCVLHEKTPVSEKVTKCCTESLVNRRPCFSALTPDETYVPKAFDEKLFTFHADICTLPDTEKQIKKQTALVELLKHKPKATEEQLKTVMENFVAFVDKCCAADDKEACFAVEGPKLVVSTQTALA
SLCO1B1: Solute carrier organic anion transporter family member 1B1 (SLCO1B1, Homo sapiens, UniProt Q9Y6L6)
UniProt P05177, sequence (whole entry, looked up): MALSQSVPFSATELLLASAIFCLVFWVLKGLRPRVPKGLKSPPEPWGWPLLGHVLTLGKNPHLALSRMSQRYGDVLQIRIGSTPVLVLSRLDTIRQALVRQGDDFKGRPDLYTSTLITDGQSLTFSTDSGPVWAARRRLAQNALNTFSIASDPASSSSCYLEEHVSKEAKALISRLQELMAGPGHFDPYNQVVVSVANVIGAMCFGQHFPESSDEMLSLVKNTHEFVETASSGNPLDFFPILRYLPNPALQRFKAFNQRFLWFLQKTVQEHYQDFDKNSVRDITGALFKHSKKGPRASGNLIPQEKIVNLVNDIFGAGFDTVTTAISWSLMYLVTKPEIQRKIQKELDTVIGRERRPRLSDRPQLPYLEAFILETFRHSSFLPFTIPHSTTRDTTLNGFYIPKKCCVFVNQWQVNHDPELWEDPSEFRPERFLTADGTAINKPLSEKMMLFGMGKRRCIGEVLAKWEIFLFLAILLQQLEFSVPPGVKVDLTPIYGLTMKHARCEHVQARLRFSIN
UniProt Q9Y6L6, sequence (whole entry, looked up): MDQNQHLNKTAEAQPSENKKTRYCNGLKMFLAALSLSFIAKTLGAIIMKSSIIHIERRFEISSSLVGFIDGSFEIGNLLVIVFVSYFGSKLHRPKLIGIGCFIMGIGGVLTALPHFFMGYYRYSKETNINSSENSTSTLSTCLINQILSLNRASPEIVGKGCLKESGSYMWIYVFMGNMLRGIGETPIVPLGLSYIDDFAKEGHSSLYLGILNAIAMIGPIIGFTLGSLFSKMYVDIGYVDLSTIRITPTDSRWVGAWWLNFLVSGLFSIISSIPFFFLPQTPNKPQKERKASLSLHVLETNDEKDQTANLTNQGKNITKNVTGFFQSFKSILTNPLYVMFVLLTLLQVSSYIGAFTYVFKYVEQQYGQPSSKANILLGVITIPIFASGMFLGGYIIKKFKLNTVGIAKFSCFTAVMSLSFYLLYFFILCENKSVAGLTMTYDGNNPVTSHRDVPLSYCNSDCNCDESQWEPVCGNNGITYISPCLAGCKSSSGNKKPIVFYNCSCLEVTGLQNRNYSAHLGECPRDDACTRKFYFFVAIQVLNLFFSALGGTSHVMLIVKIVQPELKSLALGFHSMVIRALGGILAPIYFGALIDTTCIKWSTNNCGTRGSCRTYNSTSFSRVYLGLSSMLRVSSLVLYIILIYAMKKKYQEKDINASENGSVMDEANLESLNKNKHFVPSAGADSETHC

SMILES | target or system | assay | system | conditions | scale | endpoint | result
Cc1ncc2[nH]c(=O)n(-c3cnc(Oc4cccc5c4C(C)(C)CO5)c(Cl)c3C)c2n1 | P-glycoprotein, rat |  |  |  |  | efflux ratio | 14.2
CCCCCCCCCCCCCCCC(=O)NCCCC[C@H](NC(=O)[C@H](CCC(=O)O)NC(=O)[C@H](Cc1ccc(O)cc1)NC(=O)[C@H](CCC(=O)O)NC(=O)COCC(=O)NCCCOCCOCCOCCCNC(=O)[C@H](Cc1c[nH]c2ccccc12)NC(=O)[C@H](CCCCN)NC(=O)[C@H](C)NC(=O)[C@H](CCCCNC(=N)N)NC(=O)[C@H](CCC(N)=O)NC(=O)[C@H](Cc1c[nH]cn1)NC(=O)[C@H](CCSC)NC(=O)[C@H](CC(C)C)NC(=O)[C@H](CCC(N)=O)NC(=O)[C@@H](NC(=O)[C@H](CCC(=O)O)NC(=O)C(C)(C)NC(=O)[C@@H](NC(=O)C(C)(C)N)C(C)C)[C@@H](C)CC)C(=O)N[C@@H](CCC(=O)O)C(=O)N[C@@H](Cc1ccc(O)cc1)C(=O)N[C@@H](CCC(=O)O)C(N)=O | ALB | binding, BLI |  |  |  | Kd | 1.47 µM
O=C(c1ccc(OCCN2CCCCC2)cc1)c1c(-c2ccc(O)cc2)sc2cc(O[C@@H]3O[C@H](C(=O)O)[C@@H](O)[C@H](O)[C@H]3O)ccc12 | SLCO1B1 | substrate | HEK293 expressing SLCO1B1 | pH 7.4 |  | intrinsic clearance | 0.259 µL/min/mg protein
C=CC(=O)Nc1cccc(Cn2ncc3cnc(Nc4cnn(CCOC)c4)nc32)c1 | GRK7 human | binding, KINOMEscan |  | 100 nM | lower = stronger binding | percent of control | 97%
Cc1ncsc1-c1ccc(C(C)NC(=O)C2CC(O)CN2C(=O)C(NC(=O)CCCCCCCCCCN2CCCC(Nc3ncc(Cl)c(Nc4ccccc4S(=O)(=O)C(C)C)n3)C2)C(C)(C)C)cc1 (stereo not shown) | 22Rv1 | RNA-seq, measured: WNT5A mRNA |  | concentration not given | reference: DMSO | log2 fold change | -1.69
Cc1cccc(Oc2ccc(-n3c(=O)[nH]c4cccnc43)cn2)c1C | P-glycoprotein, rat |  |  |  |  | efflux ratio | 1.2
CN(Cc1ccccc1)C(=O)CN1CCN(CC(=O)[O-])CCN(Cc2cccc(C(=O)[O-])n2)CC1.[44Sc+3] |  |  | mouse, stomach | intravenous, 1 h |  | tracer uptake | 0.5 %ID/g
CN(C)c1ccc2c(c1)C(C)(C)c1cc(N(C)C)ccc1C21OC(=O)c2cc(C(=O)O)ccc21 | ALB | binding, fluorescence titration | PBS |  |  | Kd | 430 ± 39 µM
O=C(Nc1cc(-c2ccnc3[nH]ccc23)c(Cl)cn1)[C@H]1CCC[C@@H](NC(=O)C(F)(F)F)C1 | P-glycoprotein (MDR1) |  | MDCK-MDR1 cells |  | reference: B-A over A-B Papp | efflux ratio | 2.4
CCN(CC)c1ccc(-c2oc3cc4ccccc4cc3c(=O)c2O)cc1 | ALB |  |  | together with: BSA, 40 eq | reference: without BSA | CO release quantum yield decrease | 5 fold
CN(C)c1ccc2c(c1)C(C)(C)c1cc(N(C)C)ccc1C21OC(=O)c2c(C(=O)O)cccc21 | ALB | binding, fluorescence titration | PBS |  |  | Kd | 573 ± 59 µM
O=C(c1ccc(OCCN2CCCCC2)cc1)c1c(-c2ccc(O[C@@H]3O[C@H](C(=O)O)[C@@H](O)[C@H](O)[C@H]3O)cc2)sc2cc(O)ccc12 | SLCO1B1 | substrate | HEK293 expressing SLCO1B1 | pH 7.4 |  | intrinsic clearance | 2.21 µL/min/mg protein
CC(C)OCCOCc1ccc(OCC(O)CN(N=O)C(C)C)cc1 (stereo not shown) | Salmonella typhimurium | Ames test | TA1535 | 5 µg/plate, without metabolic activation | reference: solvent control | revertant fold increase | 0.6 fold
CNC(=O)C1CCCN(C(=O)C2CC3CCC2N3C(=O)[C@@H]2C[C@@H](O)CN2C(=O)NCc2cccc(Cl)c2F)C1 (mixture of isomers) | Cytochrome P450 1A2 (CYP1A2, Homo sapiens, UniProt P05177) | preincubation with NADPH | human | 0.206 µM | reference: negative control | remaining activity | 114% and 104% and 95.1%
CN(C)c1ccc2c(c1)[Si](C)(C)c1cc(N(C)C)ccc1C21OC(=O)c2cc(C(=O)O)ccc21 | ALB | binding, fluorescence titration | PBS |  |  | Kd | 23 ± 5 µM
COC1CN([C@H]2CC[C@H]([C@@]3(C)Oc4c(Cl)cc(C(=O)NCc5c(SC)cc(C)[nH]c5=O)c(C)c4O3)CC2)C1 |  | RNA-seq, measured: CXCL16 mouse homolog | mouse, HT-1376 xenograft, whole blood | dose not given | reference: vehicle | log2 fold change | 0.817
CN1CCN(c2ccc3[nH]c(-c4ccc5[nH]c(-c6ccc(OCCCCNC(=O)c7ccc8c(c7)C(=O)OC87c8ccc(N(C)C)cc8[Si](C)(C)c8cc(N(C)C)ccc87)cc6)nc5c4)nc3c2)CC1 | ALB | binding, fluorescence titration | PBS | 1 h |  | Kd | 299 ± 77 µM
CO[C@@H]1[C@H](OP(=O)(O)OC[C@H]2O[C@@H](n3cnc4c(=O)[nH]c(N)nc43)[C@H](O)[C@@H]2O)[C@@H](COP(=O)(O)OP(=O)([O-])O[P@@](O)(=S)OC[C@H]2O[C@@H](n3c[n+](C)c4c(=O)[nH]c(N)nc43)[C@H](O)[C@@H]2O)O[C@H]1n1cnc2c(N)ncnc21 | m7GpppN-mRNA hydrolase (DCP2, Homo sapiens, UniProt Q8IU60) | substrate |  | short capped RNA | reference: AG-CleanCap RNA | decapping susceptibility | no effect
CCN(CC)CC#CCNc1ccnc2cc(Cl)ccc12 | Salmonella typhimurium | mini-Ames test | TA100 | 500.0 µg/well, together with: rat liver S9 |  | revertant count | 14 revertants/well

For quick reference, copied from above:
SMILES | target or system | assay | system | conditions | scale | endpoint | result
CCN(CC)c1ccc(-c2oc3cc4ccccc4cc3c(=O)c2O)cc1 | ALB |  |  | together with: BSA, 40 eq | reference: without BSA | CO release quantum yield decrease | 5 fold
CN(C)c1ccc2c(c1)[Si](C)(C)c1cc(N(C)C)ccc1C21OC(=O)c2cc(C(=O)O)ccc21 | ALB | binding, fluorescence titration | PBS |  |  | Kd | 23 ± 5 µM
CC(C)OCCOCc1ccc(OCC(O)CN(N=O)C(C)C)cc1 (stereo not shown) | Salmonella typhimurium | Ames test | TA1535 | 5 µg/plate, without metabolic activation | reference: solvent control | revertant fold increase | 0.6 fold
